# Experimental data pooled from the literature.
# Each line is one published result; not all experiments were run side by side.
# TDP1: Tyrosyl-DNA phosphodiesterase 1 (TDP1, Homo sapiens, UniProt Q9NUW8)
# Sequence of UniProt Q9NUW8 (whole entry, looked up): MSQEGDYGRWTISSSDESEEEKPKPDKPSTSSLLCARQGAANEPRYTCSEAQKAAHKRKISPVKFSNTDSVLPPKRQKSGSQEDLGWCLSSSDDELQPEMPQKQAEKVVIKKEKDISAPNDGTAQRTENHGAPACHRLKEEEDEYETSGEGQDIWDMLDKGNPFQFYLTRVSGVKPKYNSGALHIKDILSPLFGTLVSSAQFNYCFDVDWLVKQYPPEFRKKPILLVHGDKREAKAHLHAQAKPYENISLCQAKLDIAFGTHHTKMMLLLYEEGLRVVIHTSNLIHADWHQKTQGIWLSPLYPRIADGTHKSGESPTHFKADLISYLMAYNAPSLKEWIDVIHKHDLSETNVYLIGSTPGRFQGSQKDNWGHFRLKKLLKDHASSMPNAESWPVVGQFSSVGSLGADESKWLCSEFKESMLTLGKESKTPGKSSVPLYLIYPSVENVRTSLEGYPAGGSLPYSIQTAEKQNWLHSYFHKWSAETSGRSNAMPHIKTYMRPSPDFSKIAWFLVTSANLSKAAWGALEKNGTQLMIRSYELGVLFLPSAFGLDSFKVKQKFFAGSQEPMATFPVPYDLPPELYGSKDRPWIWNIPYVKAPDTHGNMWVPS
SMILES,target or system,test,setting,endpoint,result
C=CC(=O)Nc1cc(Nc2nccc(-c3c(-c4cccc5ccccc45)n(C)c4ccccc34)n2)c(OC)cc1N(C)CCN(C)C,NCI-H1975,"cell growth or viability, MTT","0.5 µM, 72 h",inhibition,67.8%
CCCCn1cnc2ccc(-c3ccc(NC(=O)CC)nc3)cc2c1=O,NCI-H1975,"cell growth or viability, CCK-8",72 h,IC50,2350 nM
CC(C)c1ccc(N(C)c2ccc3c(c2)OCC[C@H]3CNc2cnccc2C(=O)O)cc1,NCI-H1975,"cell growth or viability, ATP luminescence",7 days,IC50,34.8 nM
Cc1cncc(N2CCC(C=NOCc3ccc(-c4nc5cc(-c6ccccc6)ccn5c4Nc4ccc(C(=O)O)cc4)cc3)CC2)n1,TDP1,"enzyme activity, inhibitor",100 µM,inhibition,41.2%
O=C(NCc1cc(F)cc(F)c1)[C@@]1(O)CCN(c2ccc3[nH]ccc3c2)C1=O,NCI-H1975,cell growth or viability,,IC50,16000 nM
CNS(=O)(=O)Nc1nccc(Cc2c(C)c3ccc(Oc4ncccc4F)cc3oc2=O)c1F,NCI-H1975,cell viability,7 days,IC50,> 1000 nM
CCOc1cncc(-c2ccc(NC(=O)C3(c4ccnc(NS(=O)(=O)C5CC5)n4)CCOCC3)nc2)n1,NCI-H1975,"cell growth or viability, ATP luminescence",72 h,IC50,181 nM
Cc1nn(Cc2ccccc2Cl)c(Cl)c1C=NOCc1ccc2nc(-c3ccccc3)c(Nc3ccc(C(=O)O)cc3)n2c1 (mixture of isomers),TDP1,"enzyme activity, inhibitor","100 µM, unpurified compound",inhibition,-17.1%
C=CC(=O)Nc1cc(Nc2nccc(-c3c(-c4ccc(-c5ccccn5)cc4)n(C)c4ccccc34)n2)c(OC)cc1N(C)CCN(C)C,NCI-H1975,"cell growth or viability, MTT","0.5 µM, 72 h",inhibition,56.8%
C=CC(=O)N1CCc2ccc(-n3c(=O)ccc4cnc5ccc(-c6cnn(C)c6)cc5c43)cc21,NCI-H1975,cell growth or viability,,IC50,1690 nM

# A few entries again:
SMILES,target or system,test,setting,endpoint,result
CNS(=O)(=O)Nc1nccc(Cc2c(C)c3ccc(Oc4ncccc4F)cc3oc2=O)c1F,NCI-H1975,cell viability,7 days,IC50,> 1000 nM
